# Literature values, collected from citations in different studies.
# Lines come from different studies, so protocols differ. pEC50, pIC50: −log10 of the molar value.
# Organism: Plasmodium falciparum
SMILES,assay,system,setting,how to read,measurement,value
CC(C)(C)NCc1ccc(Nc2ccnc3cc(Cl)ccc23)cc1O,parasite growth,K1,literature value,,pIC50,7.88
N/C(CC(O)c1cc2c(F)cc(F)cc2c2cc(C(F)(F)F)ccc12)=N\c1ccc(F)cc1 (stereo not shown),parasite growth,Dd2 PfcytB I22L (ELQ-300-resistant),,,pIC50,7.85
Cc1c(Cc2ccc(C(F)(F)F)cc2F)c[nH]c1C(=O)NC1CC1,parasite growth,3D7,,,pEC50,7.80
Cc1cc(Nc2ccc(S(F)(F)(F)(F)F)cc2)n2nc(C(C)(F)F)nc2n1,,"3D7^0087/N9, humanized SCID mouse, plasma",,,unbound plasma concentration for ED90,50 nM
COc1ccc(OC)c(C=CC(=O)NC2CCC(CN3CCC(c4c[nH]c5ccccc45)CC3)CC2)c1 (stereo not shown),whole cell extended time,3D7,72 h,,pIC50,6.19
O=C(NCCN1CCCC1)c1cc(-c2ccc(CN3CCOCC3)cc2)nc2ccc(F)cc12,,"3D7 or Dd2 E134D or E134G mutant, asexual blood stage",,baseline: parental line,IC50 fold change,40 to 50 fold
Cc1c(C)c2c(c(C)c1O)CC[C@](C)(C(=O)NC1CCC(CN3CCC(c4c[nH]c5ccccc45)CC3)CC1)O2 (stereo partly shown),whole cell extended time,3D7,72 h,,pIC50,6.06
O=C(/C=C/c1cccc(S(=O)(=O)Nc2ccccc2)c1)NO,,,,baseline: IC50 Dd2 over IC50 3D7,resistance index,1.1
Cc1c(C2(c3ccc(C(F)(F)F)nc3)CC2)c[nH]c1C(=O)N[C@H](C)c1nc[nH]n1,,"3D7^0087/N9, humanized SCID mouse, blood",dose not given,,average blood concentration for ED90,1500 nM
CNCCN(C)C(=O)Oc1c(Br)c(C)nc(C)c1-c1ccc(Oc2ccc(OC(F)(F)F)cc2)cc1,whole cell extended time,3D7,72 h,,pIC50,6.96

# Repeated from above:
SMILES,assay,system,setting,how to read,measurement,value
Cc1c(Cc2ccc(C(F)(F)F)cc2F)c[nH]c1C(=O)NC1CC1,parasite growth,3D7,,,pEC50,7.80
